Results from different studies.
Every numbered part comes from another study and shows a few of its results, in no order. Positions count from the first letter of the parent shown.

Study 1 — method: DHFR PCA, deep sequencing; medium: yeast; added: (+)-ABA 710 µM; relative to: wild-type fitted maximum; reading: higher = stronger binding
Target: ABI1, truncated, D143A, DHFR fusion (Arabidopsis thaliana)
Setting: methotrexate growth selection, single substitutions
Parent: PYL1, truncated, DHFR fusion (Arabidopsis thaliana); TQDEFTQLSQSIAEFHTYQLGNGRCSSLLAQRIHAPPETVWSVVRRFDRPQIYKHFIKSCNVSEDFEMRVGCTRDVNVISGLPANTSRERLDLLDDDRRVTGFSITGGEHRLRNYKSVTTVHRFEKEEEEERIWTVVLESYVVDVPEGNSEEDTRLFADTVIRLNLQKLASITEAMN; partner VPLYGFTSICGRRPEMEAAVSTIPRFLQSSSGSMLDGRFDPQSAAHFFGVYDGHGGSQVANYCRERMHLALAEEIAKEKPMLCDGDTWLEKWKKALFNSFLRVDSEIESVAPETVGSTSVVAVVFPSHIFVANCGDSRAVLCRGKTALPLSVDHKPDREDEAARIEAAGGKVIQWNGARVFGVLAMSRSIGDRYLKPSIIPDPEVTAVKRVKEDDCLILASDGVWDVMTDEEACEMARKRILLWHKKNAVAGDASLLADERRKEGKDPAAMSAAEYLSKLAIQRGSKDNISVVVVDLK
Variant | relative binding score [%]
I33W | 2.23
G107M | 81.9
K168W | 96.7
L169D | -14.5
E147Q | 103
T101I | 111
E109V | 105

Study 2 — method: protein binding microarray; form: double-stranded DNA, one strand shown; medium: in vitro; tested at: not given; relative to: not given; reading: higher = stronger binding
Target: Histone acetyltransferase KAT6A, both winged helices, GST fusion (KAT6A, Homo sapiens, UniProt Q92794, residues 1-181)
Setting: 8-mer, flanks averaged, mean of 2 arrays, mostly near background
Target sequence (chain): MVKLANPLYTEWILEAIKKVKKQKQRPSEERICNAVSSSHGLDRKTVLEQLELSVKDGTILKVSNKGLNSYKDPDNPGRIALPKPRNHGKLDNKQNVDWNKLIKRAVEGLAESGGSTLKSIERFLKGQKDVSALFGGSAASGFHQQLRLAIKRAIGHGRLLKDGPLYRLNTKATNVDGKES
Sequence | E-score
TAACGGGA | 0.213
ATGGATAG | -0.132
ATTGGCTG | -0.194
CCCCACCC | -0.0955
GGGATGCA | -0.0864
ATGTTTCG | 0.0856
GGACTATA | -0.0233
TAACTACA | -0.0694
ATATCGGC | 0.159
ATATCCCG | 0.203
GTGTTGAA | -0.0823
AGCGGGTC | 0.238
CAAAAGAA | -0.0637

Study 3 — target: CCNA2, cyclin fold, Cln2 fusion (human); method: yeast growth competition, sequencing; medium: yeast; setting: strong parent motif; relative to: not given; reading: higher = stronger binding
Parent: ORC1 docking peptide (human); PRARKRLELGNLG
Variant | normalised enrichment score
R6T | 2.1
L9Q | 1.01
G10H | 5.02
G13F | 4.26
R4V | 1.55
G13R | 4.49
G13V | 4.71

Mixed results
Molecule | target | assay | test system | conditions | how to read | quantity | value
PhoQ, residues 284 288 289 292 302 303 TYGVAM | PhoP, residues 12 14 15 18 19 MHTVL (Escherichia coli, UniProt P23836) | Sort-seq, refers to: YFP reporter | E. coli | PhoQ-PhoP variant library, added: 10 µM Mg2+ | relative to: high Mg2+ state, higher = stronger signaling | fold induction | 5.9

For quick reference, copied from above (study 1):
Variant | relative binding score [%]
E147Q | 103
I33W | 2.23
